# Assay results from different studies.
# Several values in a cell are separate wells, animals, samples, runs or records. ± marks the error that the study gave.
SMILES,assay,system,conditions,how to read,measurement,result
Cc1nonc1Cn1nnc2c(N3CC[C@H](O)C3)nc(C(C)(C)C)nc21,,C57BL/6 mice,"intravenous, 0.5 mg/kg",,half-life,2.59 h
C=CC(=O)Nc1cc(Nc2nccc(Nc3cc(Cl)c(F)cc3C(C)(C)O)n2)c(OC)cc1N1CC[C@@H](N(C)C)C1,,human patients,"oral, 200 mg, treatment-emergent adverse events",,patients with lipase increased,6.3%
O=c1nc(NO)ccn1[C@@H]1O[C@H](CO)[C@@H](O)[C@H]1O,,rat fetus dialysate,"1000 ng/mL, more than 4 weeks, -20 °C, high concentration, added: molnupiravir 250 ng/mL",,long-term stability,99.7 ± 2.29%
CN1CC[C@@H](c2c(O)cc(O)c3c(=O)cc(-c4ccc(C(F)(F)F)cc4Cl)oc23)[C@@H]1CO,measured: Hyperglycemia,relapsed AML,"oral, 150 mg, grade 3-4, intermittent dosing",,patients with adverse event,25%
O=c1ccc2ncc(=O)n3c2n1C[C@H]3CN1CCC(NCc2cc3c(cn2)OCCC3)CC1,,"male Sprague Dawley rats, wild-type","intravenous infusion, 125 mg/kg",,renal clearance,25.9 ± 11.5 mL/min/kg
CC(C)[C@@H]1NC(=O)CNC(=O)[C@H](CC(N)=O)NC(=O)[C@H](CCCNC(=N)N)NC(=O)[C@H](Cc2ccc(O)cc2)NC(=O)[C@H](C(C)C)NC(=O)[C@@H](NC(=O)[C@@H](NC(=O)[C@H](CC(N)=O)NC(=O)[C@H](Cc2c[nH]c3ccccc23)NC(=O)[C@H](C)NC(=O)[C@H](Cc2ccccc2)NC(=O)CN)C(C)C)CSSC[C@@H](C(=O)N[C@@H](Cc2cnc[nH]2)C(=O)N[C@@H](CCCNC(=N)N)C(=O)N[C@@H](CCCNC(=N)N)C(=O)N[C@@H](C)C(=O)N[C@@H](CC(N)=O)C(N)=O)NC(=O)[C@H](C(C)C)NC(=O)[C@H](CCCNC(=N)N)NC1=O,,"ICR mice, serum","intraperitoneal, 10 mg/kg, day 5",,albumin,32.7 ± 1.09 g/L
CC1(C)C(/C=C(\Cl)C(F)(F)F)C1C(=O)OC(C#N)c1cccc(Oc2ccccc2)c1 (centres unmarked),measured: CYP2C8,"human, age 5 years",,,enzyme contribution to clearance,0.09%
Cn1c(-c2ccc(C(N)=O)cc2F)nnc1C(C)(C)Oc1c(F)cc(Cl)cc1F,,human,"oral, 60 mg, single ascending dose",,gastrointestinal disorder TEAE,0%
CCCCN1CCC(COC(=O)c2ccc(N)c(O[11CH3])c2)CC1,PET,"rhesus monkey, striatum",60 min post injection,,washout from peak,> 50%
C=CCNc1c(O)cc2c(O)c1C[C@@H](C)C[C@H](OC)[C@H](O)[C@@H](C)/C=C(\C)[C@H](OC(N)=O)[C@@H](OC)/C=C\C=C(/C)C(=O)N2,,"unresectable or metastatic STS, GIST, other","intravenous, 150 mg/m^2",,patients with vomiting TEAE,0%
C[C@@H](NC(=O)N1C(=O)[C@H](Cc2ccnc(N)c2)[C@H]1C(=O)O)C1CCCCC1,,healthy adult Chinese volunteers,"continuous intravenous infusion, 1.0 mg/kg/h, 5-day infusion, CTCAE 5.0 grading",,incidence of urine leukocyte esterase positive,12.5%
CCCCCCCCCCCCCCCC(=O)N[C@@H](CCC(=O)NCCCC[C@H](NC(=O)[C@H](CC(=O)O)NC(=O)[C@H](CO)NC(=O)[C@@H](NC(=O)[C@H](Cc1ccccc1)NC(=O)[C@@H](NC(=O)CNC(=O)[C@H](CCC(N)=O)NC(=O)[C@H](CO)NC(=O)[C@@H](N)Cc1c[nH]cn1)[C@@H](C)O)[C@@H](C)O)C(=O)N[C@@H](CO)C(=O)N[C@@H](CCC(=O)O)C(=O)N[C@@H](Cc1ccc(O)cc1)C(=O)N[C@@H](CC(C)C)C(=O)N[C@@H](CC(=O)O)C(=O)N[C@@H](CO)C(=O)N[C@@H](CCC(=O)O)C(=O)N[C@@H](CCCNC(=N)N)C(=O)N[C@@H](C)C(=O)N[C@@H](CCCNC(=N)N)C(=O)N[C@@H](CC(=O)O)C(=O)N[C@@H](Cc1ccccc1)C(=O)N[C@H](C(=O)N[C@@H](C)C(=O)N[C@@H](Cc1c[nH]c2ccccc12)C(=O)N[C@@H](CC(C)C)C(=O)N[C@@H](CCC(=O)O)C(=O)N[C@@H](C)C(=O)NCC(=O)NCC(=O)O)C(C)C)C(=O)O,measured: Dyspepsia,humans CrCl 30 to 45 mL/min,"subcutaneous, 100 µg single dose",,treatment-related adverse events,0%
O=C1Nc2cc3[nH]nc(-c4ccncc4)c3cc2CN1Cc1ccccc1,CTCAE v4.03,advanced solid tumour patients,"intravenous, 0.9 mg/kg, schedules 1/2",,patients with fatigue,0%
O=[N+]([O-])NC1=NCCN1Cc1ccc(Cl)nc1,ultrafiltration,cow milk whey,2000 nM nominal in whole milk,,final permeate concentration,1690 nM
C=CC(=O)N1CC[C@H](n2nc(C#Cc3cc(OC)cc(OC)c3)c3c(N)ncnc32)C1,,patients with advanced solid tumours,"oral, dose not given, Diarrhea, any grade, QD, all patients",,adverse drug reaction incidence,16.3%
CC(=O)c1c(C)c2cnc(Nc3ccc(C4CCN(CCS(C)(=O)=O)CC4)cn3)nc2n(C2CCCC2)c1=O,,"human, plasma","oral, 25 mg once daily, day 21, multiple doses",,CL,1390 mL/min
O=C(Nc1ccccc1)C1CCN(C(=O)Oc2cccnc2)CC1,Bond-Lader VAS,healthy women,60 mg,"reference: pre-dose baseline, direction not given",change in Strong-feeble score,2.4
C[C@]1(CO)Cc2ncn(-c3ccc(C#N)c(Cl)c3)c2C(=O)O1,,"human, plasma","40 mg, first dose fasted",,tmax,1 h
COc1cc2c(Oc3ccc4[nH]c(C)cc4c3F)ccnc2cc1OCC1(N)CC1,,paediatric recurrent refractory sarcoma,10 mg,,grade 3 Tinnitus,0%
CC[C@H](C)[C@H](NC(=O)[C@H](CC(C)C)NC(=O)[C@H](Cc1c[nH]c2ccccc12)NC(=O)[C@H](CCC(N)=O)NC(=O)[C@@H](NC(=O)[C@H](Cc1ccccc1)NC(=O)[C@H](C)NC(=O)[C@H](CCCCNC(=O)COCCOCCNC(=O)COCCOCCNC(=O)CC[C@H](NC(=O)CCCCCCCCCCCCCCCCCCC(=O)O)C(=O)O)NC(=O)[C@H](CCC(N)=O)NC(=O)[C@H](C)NC(=O)[C@@H](NC(=O)[C@H](CCCCN)NC(=O)[C@H](CC(=O)O)NC(=O)[C@H](CC(C)C)NC(=O)C(C)(C)NC(=O)[C@@H](NC(=O)[C@H](CO)NC(=O)[C@H](Cc1ccc(O)cc1)NC(=O)[C@H](CC(=O)O)NC(=O)[C@H](CO)NC(=O)[C@@H](NC(=O)[C@H](Cc1ccccc1)NC(=O)[C@@H](NC(=O)CNC(=O)[C@H](CCC(=O)O)NC(=O)C(C)(C)NC(=O)[C@@H](N)Cc1ccc(O)cc1)[C@@H](C)O)[C@@H](C)O)[C@@H](C)CC)[C@@H](C)CC)C(C)C)C(=O)N[C@@H](C)C(=O)NCC(=O)NCC(=O)N1CCC[C@H]1C(=O)N[C@@H](CO)C(=O)N[C@@H](CO)C(=O)NCC(=O)N[C@@H](C)C(=O)N1CCC[C@H]1C(=O)N1CCC[C@H]1C(=O)N1CCC[C@H]1C(=O)N[C@@H](CO)C(N)=O,,"human, plasma","subcutaneous, 5 mg first dose, week 1, 15 mg group, tau 168 h, geometric mean",,AUC(0-tau),54400 ng·h/mL
Cc1cc(C)c(CNC(=O)c2cc(Cl)c3c(c2C)O[C@@](C)([C@H]2CC[C@H](N(C)C)CC2)O3)c(=O)[nH]1,,"human, relapsed/refractory NHL","concentration not given, all TEAEs, grade 5",,Anaemia incidence,0%
CO[C@H]1C[C@@H]2CC[C@@H](C)[C@@](O)(O2)C(=O)C(=O)N2CCCC[C@H]2C(=O)O[C@H]([C@H](C)C[C@@H]2CC[C@@H](OC(=O)NCCOCCOCCOCCOCCOCCOCCOCCOCCC(=O)N3CCc4cc(Cn5nc(-c6ccc7oc(N)nc7c6)c6c(N)ncnc65)ccc4C3)[C@H](OC)C2)C[C@@H](O)[C@H](C)/C=C(\C)[C@@H](O)[C@@H](OC)C(=O)[C@H](C)C[C@H](C)/C=C/C=C/C=C/1C,"phase 1 dose escalation, measured: neutropenia",advanced solid tumour patients,"intravenous, 12 mg weekly, any grade",,dose-reducing adverse events,0%
CC(C)(C)c1cc(-n2nc3ccc(Cl)cc3n2)c(O)c(C(C)(C)C)c1,,reconstructed human epidermis EpiSkin,sunscreen extract,,time to 80% permeation,9 h
CC(C)C[C@H](NC(=O)[C@H](CCCCN)NC(=O)OCC1c2ccccc2-c2ccccc21)C(=O)N[C@H](C(=O)N[C@@H](Cc1ccccc1)C(=O)N[C@@H](Cc1ccccc1)C(=O)N[C@@H](CCCCN)C(=O)NCC(=O)N[C@@H](Cc1ccccc1)C(=O)N[C@@H](C)C(=O)N[C@@H](Cc1c[nH]c2ccccc12)C(=O)N[C@@H](CC(N)=O)C(=O)N[C@H](C(=O)N[C@H]1CSSC[C@@H](C(=O)N[C@@H](Cc2c[nH]cn2)C(=O)N[C@@H](CCCNC(=N)N)C(=O)N[C@@H](CCCNC(=N)N)C(=O)N[C@@H](C)C(=O)N[C@@H](CC(N)=O)C(N)=O)NC(=O)[C@H](C(C)C)NC(=O)[C@H](CCCNC(=N)N)NC(=O)[C@H](C(C)C)NC(=O)CNC(=O)[C@H](CC(N)=O)NC(=O)[C@H](CCCNC(=N)N)NC(=O)[C@H](Cc2ccc(O)cc2)NC(=O)[C@H](C(C)C)NC1=O)C(C)C)C(C)C,HPLC,mouse mammary gland homogenate,"2560 µM, 2.00 h, 37 °C, 50 mg/mL tissue",,remaining peptide,90.9% and 88%
CN1CCN(S(=O)(=O)c2cc([N+](=O)[O-])ccc2N(CCOS(C)(=O)=O)CCOS(C)(=O)=O)CC1,,"naive NOD/SCID mice, pooled blood","intraperitoneal, 12.5 mg/kg, week 4",,sodium,155 mmol/L
O=[N+]([O-])c1ccc2c(c1)S(=O)(=O)C=C2,,"male C57BL/6 mice, blood","intraperitoneal, 20 mg/kg, day 8, group average",,mean corpuscular haemoglobin concentration,289 g/L
